{"data": "Published values of several laboratories", "note": "A part holds a random share of what one study measured. Several values in a cell are separate wells, animals, samples, runs or records.", "UniProt Q5S007, sequence (whole entry, unmodified, looked up)": "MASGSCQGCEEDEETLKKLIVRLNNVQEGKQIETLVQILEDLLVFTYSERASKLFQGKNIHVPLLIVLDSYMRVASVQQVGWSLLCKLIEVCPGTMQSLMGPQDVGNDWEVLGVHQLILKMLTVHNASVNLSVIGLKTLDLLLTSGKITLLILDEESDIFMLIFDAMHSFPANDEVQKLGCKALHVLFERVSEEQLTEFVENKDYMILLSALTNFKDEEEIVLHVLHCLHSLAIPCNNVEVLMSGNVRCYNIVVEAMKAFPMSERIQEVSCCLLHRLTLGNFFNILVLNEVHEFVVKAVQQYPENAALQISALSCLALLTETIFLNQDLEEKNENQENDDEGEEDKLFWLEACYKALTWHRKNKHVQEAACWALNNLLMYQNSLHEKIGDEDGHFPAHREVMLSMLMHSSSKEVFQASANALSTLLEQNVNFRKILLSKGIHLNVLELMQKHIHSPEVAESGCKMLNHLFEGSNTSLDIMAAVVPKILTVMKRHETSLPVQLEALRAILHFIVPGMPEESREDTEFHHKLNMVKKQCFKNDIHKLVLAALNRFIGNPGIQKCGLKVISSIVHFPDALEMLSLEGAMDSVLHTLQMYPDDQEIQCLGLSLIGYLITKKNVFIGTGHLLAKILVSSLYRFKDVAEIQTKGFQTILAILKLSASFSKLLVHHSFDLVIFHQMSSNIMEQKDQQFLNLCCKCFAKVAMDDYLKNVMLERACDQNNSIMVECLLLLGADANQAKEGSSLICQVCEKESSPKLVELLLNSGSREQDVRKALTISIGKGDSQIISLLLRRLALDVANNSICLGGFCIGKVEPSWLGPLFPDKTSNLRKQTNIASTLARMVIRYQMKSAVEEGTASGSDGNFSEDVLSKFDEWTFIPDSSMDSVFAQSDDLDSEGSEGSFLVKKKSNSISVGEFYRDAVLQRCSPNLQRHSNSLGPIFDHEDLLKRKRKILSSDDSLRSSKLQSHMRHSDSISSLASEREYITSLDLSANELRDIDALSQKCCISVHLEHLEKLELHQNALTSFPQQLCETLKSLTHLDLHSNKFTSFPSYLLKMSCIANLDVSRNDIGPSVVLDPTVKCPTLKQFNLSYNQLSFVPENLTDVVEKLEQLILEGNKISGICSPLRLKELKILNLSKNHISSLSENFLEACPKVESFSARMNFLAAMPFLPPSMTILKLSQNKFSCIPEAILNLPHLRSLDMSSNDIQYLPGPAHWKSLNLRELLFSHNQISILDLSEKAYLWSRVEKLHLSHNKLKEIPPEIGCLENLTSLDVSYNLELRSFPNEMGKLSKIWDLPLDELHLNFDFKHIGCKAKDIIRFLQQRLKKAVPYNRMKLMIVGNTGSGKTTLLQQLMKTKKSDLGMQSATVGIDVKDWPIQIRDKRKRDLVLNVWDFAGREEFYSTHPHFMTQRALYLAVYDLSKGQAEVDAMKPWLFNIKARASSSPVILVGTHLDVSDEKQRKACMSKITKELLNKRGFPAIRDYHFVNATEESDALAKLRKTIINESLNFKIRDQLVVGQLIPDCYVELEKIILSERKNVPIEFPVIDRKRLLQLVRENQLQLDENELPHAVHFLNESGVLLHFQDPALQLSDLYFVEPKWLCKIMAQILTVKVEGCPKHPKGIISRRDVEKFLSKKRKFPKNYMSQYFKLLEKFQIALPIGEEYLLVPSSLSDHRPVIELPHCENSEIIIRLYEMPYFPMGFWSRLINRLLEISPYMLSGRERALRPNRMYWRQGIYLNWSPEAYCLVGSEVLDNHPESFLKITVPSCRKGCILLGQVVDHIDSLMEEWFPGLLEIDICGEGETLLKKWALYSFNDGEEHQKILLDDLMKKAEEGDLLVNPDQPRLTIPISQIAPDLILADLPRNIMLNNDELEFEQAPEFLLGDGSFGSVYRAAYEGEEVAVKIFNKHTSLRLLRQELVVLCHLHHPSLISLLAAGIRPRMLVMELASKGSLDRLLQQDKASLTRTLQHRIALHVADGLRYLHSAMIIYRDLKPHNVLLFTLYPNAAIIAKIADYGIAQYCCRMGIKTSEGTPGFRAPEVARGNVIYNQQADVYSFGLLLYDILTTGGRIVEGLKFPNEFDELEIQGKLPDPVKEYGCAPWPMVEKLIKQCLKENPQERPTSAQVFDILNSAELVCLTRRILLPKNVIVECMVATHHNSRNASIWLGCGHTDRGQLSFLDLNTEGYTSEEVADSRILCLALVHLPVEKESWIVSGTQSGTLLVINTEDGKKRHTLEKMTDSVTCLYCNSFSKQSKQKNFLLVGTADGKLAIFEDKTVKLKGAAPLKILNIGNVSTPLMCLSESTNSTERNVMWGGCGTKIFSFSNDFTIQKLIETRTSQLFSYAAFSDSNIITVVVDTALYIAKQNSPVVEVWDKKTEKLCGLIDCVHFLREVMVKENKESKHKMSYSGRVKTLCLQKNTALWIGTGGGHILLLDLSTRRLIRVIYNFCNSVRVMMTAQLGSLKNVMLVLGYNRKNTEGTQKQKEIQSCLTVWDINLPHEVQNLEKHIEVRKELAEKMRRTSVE", "UniProt P10721, sequence (whole entry, looked up)": "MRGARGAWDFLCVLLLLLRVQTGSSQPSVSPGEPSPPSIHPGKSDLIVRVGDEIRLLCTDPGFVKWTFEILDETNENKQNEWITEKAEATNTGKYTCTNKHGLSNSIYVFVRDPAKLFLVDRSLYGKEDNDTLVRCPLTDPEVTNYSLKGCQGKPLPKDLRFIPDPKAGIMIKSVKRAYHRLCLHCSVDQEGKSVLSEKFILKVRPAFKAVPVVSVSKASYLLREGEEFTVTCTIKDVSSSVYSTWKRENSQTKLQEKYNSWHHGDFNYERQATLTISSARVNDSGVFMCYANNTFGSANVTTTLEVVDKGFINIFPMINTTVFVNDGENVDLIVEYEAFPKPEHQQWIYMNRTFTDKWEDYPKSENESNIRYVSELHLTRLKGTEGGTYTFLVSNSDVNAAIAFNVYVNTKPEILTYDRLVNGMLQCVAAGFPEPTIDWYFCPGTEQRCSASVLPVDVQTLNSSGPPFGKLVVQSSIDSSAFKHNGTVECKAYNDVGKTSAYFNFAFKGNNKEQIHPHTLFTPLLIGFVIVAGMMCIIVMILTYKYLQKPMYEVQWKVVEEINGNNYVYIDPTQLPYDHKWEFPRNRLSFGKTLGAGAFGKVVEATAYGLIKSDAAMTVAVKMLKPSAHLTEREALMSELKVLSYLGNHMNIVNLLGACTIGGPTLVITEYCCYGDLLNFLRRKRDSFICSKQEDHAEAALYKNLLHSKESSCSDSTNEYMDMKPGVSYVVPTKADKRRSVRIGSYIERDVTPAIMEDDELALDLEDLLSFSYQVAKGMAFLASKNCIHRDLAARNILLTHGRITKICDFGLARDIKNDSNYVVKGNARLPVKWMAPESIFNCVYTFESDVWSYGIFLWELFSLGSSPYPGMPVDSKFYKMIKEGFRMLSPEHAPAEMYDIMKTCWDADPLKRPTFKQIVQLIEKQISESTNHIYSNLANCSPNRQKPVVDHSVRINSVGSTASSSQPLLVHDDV", "UniProt P07948, sequence (whole entry, looked up)": "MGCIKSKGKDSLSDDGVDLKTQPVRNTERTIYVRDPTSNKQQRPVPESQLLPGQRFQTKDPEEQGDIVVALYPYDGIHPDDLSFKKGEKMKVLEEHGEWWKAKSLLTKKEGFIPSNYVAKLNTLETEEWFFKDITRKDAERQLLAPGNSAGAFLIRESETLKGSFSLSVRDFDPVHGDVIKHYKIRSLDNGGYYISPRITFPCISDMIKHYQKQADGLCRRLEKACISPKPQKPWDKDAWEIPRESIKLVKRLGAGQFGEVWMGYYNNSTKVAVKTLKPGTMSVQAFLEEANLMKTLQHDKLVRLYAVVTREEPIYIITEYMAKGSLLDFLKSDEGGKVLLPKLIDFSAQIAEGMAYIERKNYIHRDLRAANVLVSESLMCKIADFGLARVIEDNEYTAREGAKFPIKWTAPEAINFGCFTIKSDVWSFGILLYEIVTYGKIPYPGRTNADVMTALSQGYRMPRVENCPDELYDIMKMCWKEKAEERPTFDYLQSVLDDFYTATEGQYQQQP", "UniProt P29317, sequence (whole entry, looked up)": "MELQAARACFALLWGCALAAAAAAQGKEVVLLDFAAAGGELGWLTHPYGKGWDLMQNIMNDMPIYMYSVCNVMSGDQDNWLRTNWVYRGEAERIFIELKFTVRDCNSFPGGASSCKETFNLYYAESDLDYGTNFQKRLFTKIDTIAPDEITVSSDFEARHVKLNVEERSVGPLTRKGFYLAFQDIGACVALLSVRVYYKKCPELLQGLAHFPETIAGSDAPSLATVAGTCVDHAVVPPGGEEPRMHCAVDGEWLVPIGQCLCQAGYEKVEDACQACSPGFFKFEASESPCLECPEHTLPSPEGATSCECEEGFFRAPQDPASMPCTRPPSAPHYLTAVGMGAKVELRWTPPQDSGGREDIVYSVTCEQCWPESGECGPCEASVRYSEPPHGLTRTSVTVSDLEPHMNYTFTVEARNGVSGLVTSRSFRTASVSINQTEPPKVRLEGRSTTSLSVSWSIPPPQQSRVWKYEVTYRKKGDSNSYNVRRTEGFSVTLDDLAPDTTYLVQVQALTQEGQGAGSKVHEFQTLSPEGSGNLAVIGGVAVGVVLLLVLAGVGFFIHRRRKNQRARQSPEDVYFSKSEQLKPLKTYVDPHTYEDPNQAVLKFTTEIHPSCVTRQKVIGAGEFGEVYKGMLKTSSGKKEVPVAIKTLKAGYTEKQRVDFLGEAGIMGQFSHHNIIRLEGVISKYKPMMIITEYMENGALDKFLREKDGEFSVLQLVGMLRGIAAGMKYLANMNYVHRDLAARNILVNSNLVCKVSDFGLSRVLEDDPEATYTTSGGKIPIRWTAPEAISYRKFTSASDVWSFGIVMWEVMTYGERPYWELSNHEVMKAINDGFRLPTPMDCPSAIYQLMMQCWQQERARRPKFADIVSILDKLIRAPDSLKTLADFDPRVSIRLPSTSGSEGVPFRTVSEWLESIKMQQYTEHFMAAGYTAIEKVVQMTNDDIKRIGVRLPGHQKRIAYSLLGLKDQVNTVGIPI"}
{"data": "Series 1", "Compound": "Cc1cc(NC(=O)c2cccc(S(F)(F)(F)(F)F)c2)cc(-n2ccn3nc(-c4cccnc4)cc23)c1", "effect on": "cell-free assay", "method": "competition with immobilised ligand", "concentration": "1 µM"}
{"target": "TEK (Homo sapiens, UniProt Q02763)", "remaining binding": "84.2%"}
{"target": "EPHA2 (Homo sapiens, UniProt P29317)", "remaining binding": "100%"}
{"target": "Tyrosine-protein kinase ABL1, non-phosphorylated (ABL1, Homo sapiens, UniProt P00519, T315I)", "remaining binding": "88.9%"}
{"target": "DAPK1 (Homo sapiens, UniProt P53355)", "remaining binding": "100%"}
{"target": "LRRK2 (Homo sapiens, UniProt Q5S007, G2019S)", "remaining binding": "81.3%"}
{"target": "MAP3K5 (Homo sapiens, UniProt Q99683)", "remaining binding": "100%"}
{"target": "PTK6 (Homo sapiens, UniProt Q13882)", "remaining binding": "100%"}
{"target": "MAP4K3 (Homo sapiens, UniProt Q8IVH8)", "remaining binding": "100%"}
{"target": "PAK5 (Homo sapiens, UniProt Q9P286)", "remaining binding": "100%"}
{"target": "Tyrosine-protein kinase JAK1, JH2 (JAK1, Homo sapiens, UniProt P23458)", "remaining binding": "28.7%"}
{"target": "MAPK4 (Homo sapiens, UniProt P31152)", "remaining binding": "50.4%"}
{"target": "PLK3 (Homo sapiens, UniProt Q9H4B4)", "remaining binding": "69.4%"}
{"target": "FES (Homo sapiens, UniProt P07332)", "remaining binding": "100%"}
{"data": "Series 2", "SMILES": "NC(=O)c1ccc(N(C(N)=O)c2c(F)cccc2F)nc1-c1ccc(F)cc1F", "effect on": "enzyme activity", "mode": "inhibitor", "concentration": "0.5 µM", "baseline": "control"}
{"target": "EPHA5 (Homo sapiens, UniProt P54756)", "remaining activity [%]": 105}
{"target": "LRRK2 (Homo sapiens, UniProt Q5S007)", "remaining activity [%]": 82}
{"target": "PRKCD (Homo sapiens, UniProt Q05655)", "remaining activity [%]": 104}
{"target": "Cyclin-dependent kinase 9, with cyclin T1 (CDK9, Homo sapiens, UniProt P50750)", "remaining activity [%]": 96.7}
{"target": "CSNK2A1 (Homo sapiens, UniProt P68400)", "remaining activity [%]": 111}
{"target": "KIT (Homo sapiens, UniProt P10721)", "remaining activity [%]": 97.7}
{"target": "PLK2 (Homo sapiens, UniProt Q9NYY3)", "remaining activity [%]": 102}
{"target": "CHEK1 (Homo sapiens, UniProt O14757)", "remaining activity [%]": 89.2}
{"target": "WNK2 (Homo sapiens, UniProt Q9Y3S1)", "remaining activity [%]": 96.4}
{"target": "AKT3 (Homo sapiens, UniProt Q9Y243)", "remaining activity [%]": 86.2}
{"target": "MAP4K2 (Homo sapiens, UniProt Q12851)", "remaining activity [%]": 108}
{"target": "MKNK2 (Homo sapiens, UniProt Q9HBH9)", "remaining activity [%]": 101}
{"target": "PRKG1 (Homo sapiens, UniProt Q13976)", "remaining activity [%]": 88.1}
{"target": "IRAK4 (Homo sapiens, UniProt Q9NWZ3)", "remaining activity [%]": 87.5}
{"target": "MAP3K10 (Homo sapiens, UniProt Q02779)", "remaining activity [%]": 104}
{"target": "MAPK13 (Homo sapiens, UniProt O15264)", "remaining activity [%]": 94}
{"target": "BTK (Homo sapiens, UniProt Q06187)", "remaining activity [%]": 98.2}
{"target": "NEK4 (Homo sapiens, UniProt P51957)", "remaining activity [%]": 104}
{"target": "MAPK12 (Homo sapiens, UniProt P53778)", "remaining activity [%]": 92.1}
{"target": "MAP2K6 (Homo sapiens, UniProt P52564)", "remaining activity [%]": 96.5}
{"target": "STK38 (Homo sapiens, UniProt Q15208)", "remaining activity [%]": 101}
{"target": "LYN (Homo sapiens, UniProt P07948)", "remaining activity [%]": 98.1}
{"data": "Series 3", "cell line": "mouse MPNST tumor cells", "method": "high-content nuclear imaging", "measured": "cell number", "concentration": "10 µM", "time": "12 h", "setting": "mean of 2 replicates", "baseline": "plate mean", "direction": "higher = more cells"}
{"Compound": "CCCc1cc(C)[nH]c(=O)c1CNC(=O)c1cc(-c2ccnc(N3CCN(C)CC3)c2)cc2c1cnn2C(C)C", "nuclei count": "-5.06 z-score"}
{"Compound": "CCOc1cc(N)c(Cl)cc1C(=O)NCC1CN(Cc2ccc(F)cc2)CCO1 (stereo not shown)", "nuclei count": "2.16 z-score"}
{"Compound": "COC(=O)Nc1nc2cc(C(=O)c3ccccc3)ccc2[nH]1", "nuclei count": "-4.72 z-score"}
{"Compound": "O=C1Nc2ccc(Cl)cc2[C@@](C#CC2CC2)(C(F)(F)F)O1", "nuclei count": "1.69 z-score and -0.791 z-score"}
{"Compound": "CCC[C@@H]1C[C@@H](C(=O)N[C@@H]([C@H]2O[C@H](SC)[C@H](O)[C@@H](O)[C@H]2O)[C@@H](C)O)N(C)C1", "nuclei count": "0.478 z-score"}
{"Compound": "Cn1c(=O)c2c(ncn2CCO)n(C)c1=O", "nuclei count": "0.749 z-score"}
{"Compound": "CCCCn1c(=O)c2[nH]c(C34CC5CC(CC3C5)C4)nc2n(CCCO)c1=O", "nuclei count": "4.89 z-score"}
{"Compound": "Cc1c(N)c(=O)n(-c2ccccc2)n1C", "nuclei count": "3.11 z-score"}
{"Compound": "COc1ccc(Br)cc1S(=O)(=O)NC(=O)/C=C/c1ccccc1Cc1ccc2ccccc2c1", "nuclei count": "2.02 z-score"}
{"Compound": "COc1ccccc1CN[C@H]1CCCN[C@H]1c1ccccc1", "nuclei count": "3.34 z-score"}
{"Compound": "C[C@H]1O[C@H](O[C@H]2[C@H](O)[C@@H](O)[C@@H](O[C@H]3[C@H](O)[C@@H](O)C(O)O[C@@H]3CO)O[C@@H]2CO)[C@H](O)[C@@H](O)[C@@H]1N[C@H]1C=C(CO)[C@@H](O)[C@H](O)[C@H]1O (stereo partly shown)", "nuclei count": "0.81 z-score and 1.71 z-score and 2.16 z-score"}
{"Compound": "C[C@H](NC[C@H](O)CP(=O)(O)CC1CCCCC1)c1ccc(Cl)c(Cl)c1", "nuclei count": "-0.0137 z-score"}
{"Compound": "CC(C)n1nc(C#Cc2ccccc2)c2c(N)ncnc21", "nuclei count": "1.33 z-score"}
{"Compound": "CC(C)(C)NS(=O)(=O)c1cncc(-c2cc(F)c3nc(N)nn3c2)c1", "nuclei count": "0.512 z-score"}
{"data": "Series 4", "organism": "Plasmodium berghei", "cell line": "Huh-7", "strain": "liver stage", "concentration": "10 µM", "time": "24 h", "baseline": "control"}
{"Structure (SMILES)": "O=C1CCc2ccc(OCCCCN3CCN(c4cccc(Cl)c4Cl)CC3)cc2N1", "parasite load [%]": 65.5}
{"Structure (SMILES)": "CC(C(=O)O)c1cccc(C(=O)c2ccccc2)c1 (stereo not shown)", "parasite load [%]": 106}
{"Structure (SMILES)": "CC(C)[N+]1(C)[C@@H]2CC[C@H]1C[C@@H](OC(=O)C(CO)c1ccccc1)C2 (stereo partly shown)", "parasite load [%]": 99.2}
{"Structure (SMILES)": "CCn1cc(C(=O)O)c(=O)c2cc(F)c(N3CCN(C)CC3)cc21", "parasite load [%]": 87.8}
{"Structure (SMILES)": "COc1ccc(CCN(C)CCCC(C#N)(c2ccc(OC)c(OC)c2)C(C)C)cc1OC (stereo not shown)", "parasite load [%]": 48.9}
{"Structure (SMILES)": "C[N+](C)(C)CCCCCCCCCC[N+](C)(C)C", "parasite load [%]": 85.8}
{"Structure (SMILES)": "NC(=O)C(c1ccccc1)(c1ccccc1)[C@@H]1CCN(CCc2ccc3c(c2)CCO3)C1", "parasite load [%]": 95.9}
{"Structure (SMILES)": "Cc1cc(NS(=O)(=O)c2ccc(N)cc2)no1", "parasite load [%]": 109}
{"Structure (SMILES)": "CC/C(=C(\\c1ccccc1)c1ccc(OCCN(C)C)cc1)c1ccccc1", "parasite load [%]": 10.4}
{"Structure (SMILES)": "N=C(N)NCCN1CCCCCCC1", "parasite load [%]": 81.9}
{"Structure (SMILES)": "CN(C)CCCN1c2ccccc2Sc2ccc(C(F)(F)F)cc21", "parasite load [%]": 125}
{"Structure (SMILES)": "CCCCc1oc2ccccc2c1C(=O)c1cc(I)c(OCCN(CC)CC)c(I)c1", "parasite load [%]": 18.8}
{"Structure (SMILES)": "CNCCC(Oc1ccc(C(F)(F)F)cc1)c1ccccc1 (stereo not shown)", "parasite load [%]": 64.6}
{"Structure (SMILES)": "O=[N+]([O-])O[C@@H]1CO[C@H]2[C@@H]1OC[C@@H]2O", "parasite load [%]": 106}
{"Structure (SMILES)": "CCOC(=O)N1CCC(=C2c3ccc(Cl)cc3CCc3cccnc32)CC1", "parasite load [%]": 83.8}
{"Structure (SMILES)": "O=c1n(CCCN2CCN(c3cccc(Cl)c3)CC2)nc2ccccn12", "parasite load [%]": 89.8}
{"Structure (SMILES)": "CSc1ccc2c(c1)N(CCC1CCCCN1C)c1ccccc1S2 (stereo not shown)", "parasite load [%]": 45.1}
{"Structure (SMILES)": "Clc1ccccc1C(c1ccccc1)(c1ccccc1)n1ccnc1", "parasite load [%]": 45}
{"note": "For quick reference, copied from above (series 3):"}
{"Compound": "Cn1c(=O)c2c(ncn2CCO)n(C)c1=O", "nuclei count": "0.749 z-score"}
{"Compound": "CCCCn1c(=O)c2[nH]c(C34CC5CC(CC3C5)C4)nc2n(CCCO)c1=O", "nuclei count": "4.89 z-score"}
{"Compound": "Cc1c(N)c(=O)n(-c2ccccc2)n1C", "nuclei count": "3.11 z-score"}
{"Compound": "COc1ccc(Br)cc1S(=O)(=O)NC(=O)/C=C/c1ccccc1Cc1ccc2ccccc2c1", "nuclei count": "2.02 z-score"}
{"Compound": "COc1ccccc1CN[C@H]1CCCN[C@H]1c1ccccc1", "nuclei count": "3.34 z-score"}
{"Compound": "C[C@H]1O[C@H](O[C@H]2[C@H](O)[C@@H](O)[C@@H](O[C@H]3[C@H](O)[C@@H](O)C(O)O[C@@H]3CO)O[C@@H]2CO)[C@H](O)[C@@H](O)[C@@H]1N[C@H]1C=C(CO)[C@@H](O)[C@H](O)[C@H]1O (stereo partly shown)", "nuclei count": "0.81 z-score and 1.71 z-score and 2.16 z-score"}
{"Compound": "C[C@H](NC[C@H](O)CP(=O)(O)CC1CCCCC1)c1ccc(Cl)c(Cl)c1", "nuclei count": "-0.0137 z-score"}
{"Compound": "CC(C)n1nc(C#Cc2ccccc2)c2c(N)ncnc21", "nuclei count": "1.33 z-score"}
{"Compound": "CC(C)(C)NS(=O)(=O)c1cncc(-c2cc(F)c3nc(N)nn3c2)c1", "nuclei count": "0.512 z-score"}
